Experimental data of several laboratories.
A part holds a random share of what one study measured. Several values in a cell are separate wells, animals, samples, runs or records. Substitutions count along the parent as printed.
Chain of UniProt Q5BJF2 (whole entry, looked up): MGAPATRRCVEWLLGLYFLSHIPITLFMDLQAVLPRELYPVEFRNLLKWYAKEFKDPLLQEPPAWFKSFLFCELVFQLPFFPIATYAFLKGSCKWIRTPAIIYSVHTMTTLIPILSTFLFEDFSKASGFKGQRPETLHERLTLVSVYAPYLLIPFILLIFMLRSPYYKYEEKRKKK

Sample 1 — target: tungstate, free oxyanion; technique: microfluidic competitive inhibition; sample: in vitro, cell-free expressed; tested at: not given; direction: lower = stronger binding
Notes: derived from inhibition constants, unchanged parent 2230 nM
Starting sequence: PafA, mature enzyme, eGFP fusion (Elizabethkingia meningoseptica, UniProt Q9KJX5); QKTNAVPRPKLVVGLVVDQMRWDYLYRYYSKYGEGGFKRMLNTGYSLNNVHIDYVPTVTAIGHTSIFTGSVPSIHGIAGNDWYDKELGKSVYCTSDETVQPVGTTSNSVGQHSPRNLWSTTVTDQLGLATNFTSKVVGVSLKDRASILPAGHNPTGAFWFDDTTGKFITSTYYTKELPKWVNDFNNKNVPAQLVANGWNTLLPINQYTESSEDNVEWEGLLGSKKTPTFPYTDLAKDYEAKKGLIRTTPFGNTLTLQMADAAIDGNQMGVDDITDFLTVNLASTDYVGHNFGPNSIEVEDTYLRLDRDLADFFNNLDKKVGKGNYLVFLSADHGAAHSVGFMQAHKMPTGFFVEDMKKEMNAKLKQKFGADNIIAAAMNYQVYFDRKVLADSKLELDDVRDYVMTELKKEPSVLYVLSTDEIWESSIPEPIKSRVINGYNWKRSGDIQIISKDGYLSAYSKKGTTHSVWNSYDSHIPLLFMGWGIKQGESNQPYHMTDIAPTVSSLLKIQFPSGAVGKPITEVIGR
Change	oxyanion analog dissociation constant
L128G	2.03 µM
N153V	2.28 µM
G288A	1.35 µM
G321V	2.1 µM
L506G	1.24 µM
I524V	2.14 µM
P178G	2.11 µM
D183V	2.7 µM

Sample 2 — target: CCNE1, cyclin fold, Cln2 fusion (human); technique: yeast growth competition, sequencing; sample: yeast; notes: strong parent motif; baseline: not given; direction: higher = stronger binding
Starting sequence: viral docking peptide; YKVKRRLVFGADD; partner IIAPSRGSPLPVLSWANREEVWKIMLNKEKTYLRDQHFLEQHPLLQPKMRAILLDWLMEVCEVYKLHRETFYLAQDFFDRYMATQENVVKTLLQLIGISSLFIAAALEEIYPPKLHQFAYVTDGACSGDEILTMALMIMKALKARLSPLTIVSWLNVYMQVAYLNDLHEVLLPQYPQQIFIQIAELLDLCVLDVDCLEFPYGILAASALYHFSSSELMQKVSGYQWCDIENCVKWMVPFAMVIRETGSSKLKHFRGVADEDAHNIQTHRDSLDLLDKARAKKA
Change	normalised enrichment score
YKVKRRLVFGGDD [A11G]	6.33
YKVKRRLQFGADD [V8Q]	5.89
YKVKRRLVFGKDD [A11K]	5.26
YKVKIRLVFGADD [R5I]	0.806
YKVKRRLHFGADD [V8H]	5.92
YKVKRRLVFGACD [D12C]	5.23
YEVKRRLVFGADD [K2E]	5.57
YKVKRRLVFGSDD [A11S]	6.15

Sample 3 — organism: Cryptosporidium parvum; technique: time-kill; strain: nanoluciferase-expressing; baseline: DMSO
Compound: CNC(=O)c1ccc(-c2cnn3ccc(C(=O)N(C)c4ccc(Cl)c(C(=O)OC)c4)cc23)cc1
tested at	time	luminescence
3 nM	0 h	97.4% and 90.3% and 98% and 103% and 99.4% and 91.4% and 90.1% and 91.2%
27 nM	4 h	122% and 97.5%
81 nM	72 h	12.3% and 10.6%
3 nM	48 h	120% and 102%

Single results of other studies
SMILES	tested on	effect on	technique	tested at	baseline	endpoint	result
Cc1c(N2CCNCC2)nc2ccc(Br)cc2c1C(=O)NC[C@H](CCC(=O)O)c1ccccc1Cl	Sigma intracellular receptor 2 (TMEM97, Homo sapiens, UniProt Q5BJF2)	ligand displacement	–	10 µM	–	inhibition	60%
CNC(=O)c1cc(C(=O)NC2CC2)cn(Cc2ccccc2)c1=O	normal-adjacent epithelium patient-derived organoids sample H	–	CellTiter-Glo	1 µM	DMSO	viability	82%
